# Measurements gathered from unrelated publications.
# Lines come from different studies, so protocols differ. Several values in a cell are separate wells, animals, samples, runs or records. ± marks the error that the study gave.
Molecule,target or system,assay,system,conditions,scale,endpoint,result
SGPLLAPLY,,CD8 T cell response,"peptide, naive splenocytes as APCs, mouse","2 µg/mL, 48 h",,IFN-γ ELISpot response,negative
TCP-1 alpha,,co-immunoprecipitation,human RBC cytosol,"DSSO crosslinker, unit not given, added: Band 3 peptide 1-56 bait",reference: negative control,co-IP enrichment,13100
KGPIVLLNV,,CD8 T cell response,"peptide, naive splenocytes as APCs, mouse","2 µg/mL, 48 h",,IFN-γ ELISpot response,negative
FKBP12,,co-immunoprecipitation,human RBC membrane,"DMTMM crosslinker, unit not given, added: Band 3 peptide 1-56 bait",reference: negative control,co-IP enrichment,0
somatropin,,,Turner syndrome patients,"s.c., 0.3 mg/kg/week, mean 22.2 months, mean",,height at end of therapy,1.35 m
SEC11A,,co-immunoprecipitation,human RBC membrane,"DMTMM crosslinker, unit not given, added: Band 3 peptide 1-56 bait",reference: negative control,co-IP enrichment,12.8
insulin degludec,,euglycaemic hyperinsulinaemic clamp,healthy Chinese male humans,"subcutaneous, 0.4 IU/kg, 24 h, 1 FC level, single dose, reference formulation",,maximum glucose infusion rate,3.02 ± 0.61 mg/kg/min
semaglutide,,,DIO male Wistar rats,"dose not given, 7 weeks",,fasting blood glucose,95 ± 3 mg/dL
cotadutide,,"metabolomics, refers to: hepatic lysine","ob/ob mice on AMLN diet, NASH model, liver",dose not given,,metabolite level,1.04 ± 0.03 scaled intensity
ALFEWIPRV,Jurkat T cells expressing 1G4 TCR,"NFAT-eGFP reporter, flow cytometry",peptide,"concentration not given, HLA-A*02:01 NY-ESO system",,reporter activation,0.11%
thimet oligopeptidase,,co-immunoprecipitation,human plasma,"unit not given, added: Band 3 peptide 1-56 bait",reference: negative control,co-IP enrichment,0
GSGAGPETLV,human MAGI1-2/6 PDZ construct (MBP fusion),automated holdup,"peptide, purified PDZ protein","concentration not given, unit not given","reference: biotin control resin, higher = stronger binding",binding intensity,0.134
GAAAGAAAGAAA (dsDNA),"Fibroin-modulator-binding protein-1 99-193 (Bombyx mori, UniProt Q5FBS0)",ITC,"double-stranded DNA, one strand shown",,,Kd,2940 ± 334 nM
KCNTATCATQRLANFLVHSSNNFGPILPPTNVGSNTY (Pramlintide; sequence looked up),,ELISA,"peptide, Tg2576 mouse, CSF","intraperitoneal, dose not given, 10 weeks daily",,Aβ1-40 level,182 ± 58.9 pg/mL
LPVGGFWSL,,CD8 T cell response,"peptide, naive splenocytes as APCs, mouse","2 µg/mL, 48 h",,IFN-γ ELISpot response,negative
maraviroc,,"ELISA, refers to: sRAGE","mouse, non-infected, serum",dose not given,,serum level,102 ± 2.21 ng/mL
PPFVAYLHL,,CD8 T cell response,"peptide, naive splenocytes as APCs, mouse","2 µg/mL, 48 h",,IFN-γ ELISpot response,negative
CpG-ODN 1826,,,"mouse B16-F10 tumour, tumour","dose not given, day 8",,LAG-3+ T cells,23.7 ± 7.27%
GPVSRSVEM,,CD8 T cell response,"peptide, naive splenocytes as APCs, mouse","2 µg/mL, 48 h",,IFN-γ ELISpot response,negative
YEQDPWGVKWWY,,,"peptide, mouse, CP model, serum","0.154 µmol/kg, 4 weeks",,serum IL-6,decreased
USP14,,co-immunoprecipitation,human RBC membrane,"DSSO crosslinker, unit not given, added: Band 3 peptide 1-56 bait",reference: negative control,co-IP enrichment,391
liraglutide,,,"Wistar rat, female, diet-induced obese","subcutaneous, dose not given, last 5 days of treatment",,food intake,62.1 ± 7.4 kcal/day
insulin,,,women with gestational diabetes,dose not given,,newborn birth weight,3.07 ± 0.37 kg
insulin aspart,,euglycaemic glucose clamp,"human, adults with type 1 diabetes, up to 35 years","subcutaneous, 0.2 U/kg",,onset of action,26.3 min
heparin sodium,,,human,"intravenous infusion, 8 IU/kg/h, day 1 to 6",reference: baseline,time to Emax of aPTT ratio,84 h
RPDWLVNRL,,CD8 T cell response,"peptide, naive splenocytes as APCs, mouse","2 µg/mL, 48 h",,IFN-γ ELISpot response,negative
SLLMWVCQV,Jurkat T cells expressing 1G4 TCR,"NFAT-eGFP reporter, fluorescence microscopy",peptide,"concentration not given, HLA-A*02:01 NY-ESO system",,reporter activation,0.913%
calcium,,"ion current, two-electrode voltage clamp",Xenopus oocytes,"1.8 mM, 80 mV, added: niflumic acid present",,desensitization time constant,37.7 s and 7.16 s and 9.86 s and 21 s and 36 s
tripeptidyl peptidase 2,,co-immunoprecipitation,human plasma,"unit not given, added: Band 3 peptide 1-56 bait",reference: negative control,co-IP enrichment,0
RFLRFQQEL,,CD8 T cell response,"peptide, naive splenocytes as APCs, mouse","2 µg/mL, 48 h",,IFN-γ ELISpot response,negative
human GAPDH,,co-immunoprecipitation,human RBC cytosol,"unit not given, added: Band 3 peptide 1-56 bait",reference: negative control,co-IP enrichment,3.71
difelikefalin,,,Japanese haemodialysis patients with pruritus,"intravenous, 0.5 µg/kg, 8 weeks",,PGIC very much improved,37.3%
insulin glargine,,self-monitoring,type 2 diabetic patients,"dose not given, one-week bedtime treatment",,mean blood glucose,129 ± 13 mg/dL
MTVCNASQRQAHAQATAVSL,,phage binding,"peptide, NSCLC cell line panel",selectivity at least 20,,number of cell lines,2
Pam2CSK4,,,"APP/PS1 mouse, cortex","local injection, dose not given, unit not given",reference: injected over adjacent side,Iba1 level,8.48 and 4.74
CCT4,,co-immunoprecipitation,human RBC cytosol,"DSSO crosslinker, unit not given, added: Band 3 peptide 1-56 bait",reference: negative control,co-IP enrichment,150
glucagon,,,mouse,"dose not given, 3 h",,plasma free fatty acids,0.479 mmol/L and 0.505 mmol/L and 0.448 mmol/L and 0.604 mmol/L and 0.297 mmol/L
insulin aspart,,euglycaemic clamp,"human, type 1 diabetes","subcutaneous, 0.3 U/kg, geometric mean",,glucose infusion rate AUC(0-4h),1630 mg/kg
SPFGIVKAL,,CD8 T cell response,"peptide, naive splenocytes as APCs, mouse","2 µg/mL, 48 h",,IFN-γ ELISpot response,negative
GSGAGSETVV,human MAGI1-2/6 PDZ construct (MBP fusion),automated holdup,"peptide, crude extract","concentration not given, uncorrected, unit not given","reference: biotin control resin, higher = stronger binding",binding intensity,0.197

# Some of these lines once more:
Molecule,target or system,assay,system,conditions,scale,endpoint,result
GAAAGAAAGAAA (dsDNA),"Fibroin-modulator-binding protein-1 99-193 (Bombyx mori, UniProt Q5FBS0)",ITC,"double-stranded DNA, one strand shown",,,Kd,2940 ± 334 nM
KCNTATCATQRLANFLVHSSNNFGPILPPTNVGSNTY (Pramlintide; sequence looked up),,ELISA,"peptide, Tg2576 mouse, CSF","intraperitoneal, dose not given, 10 weeks daily",,Aβ1-40 level,182 ± 58.9 pg/mL
LPVGGFWSL,,CD8 T cell response,"peptide, naive splenocytes as APCs, mouse","2 µg/mL, 48 h",,IFN-γ ELISpot response,negative
maraviroc,,"ELISA, refers to: sRAGE","mouse, non-infected, serum",dose not given,,serum level,102 ± 2.21 ng/mL
PPFVAYLHL,,CD8 T cell response,"peptide, naive splenocytes as APCs, mouse","2 µg/mL, 48 h",,IFN-γ ELISpot response,negative
